Measurements gathered from unrelated publications.
Each line is one published result; not all experiments were run side by side. Several values in a cell are separate wells, animals, samples, runs or records. Numbers after ± are the reported error.
Oprd1: Delta-type opioid receptor (Oprd1, Rattus norvegicus, UniProt P33533)
Chain of UniProt P33533 (whole entry, looked up): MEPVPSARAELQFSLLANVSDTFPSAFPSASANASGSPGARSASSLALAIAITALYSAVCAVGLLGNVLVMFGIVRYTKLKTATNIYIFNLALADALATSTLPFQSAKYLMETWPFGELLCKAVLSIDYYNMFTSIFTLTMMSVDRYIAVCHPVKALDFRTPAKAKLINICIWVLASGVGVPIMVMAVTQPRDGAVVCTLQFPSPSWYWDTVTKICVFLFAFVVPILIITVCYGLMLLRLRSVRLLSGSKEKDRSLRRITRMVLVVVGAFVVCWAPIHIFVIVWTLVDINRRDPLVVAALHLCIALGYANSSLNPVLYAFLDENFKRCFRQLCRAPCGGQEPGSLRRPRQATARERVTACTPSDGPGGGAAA
Neutral cholesterol ester hydrolase 1: Neutral cholesterol ester hydrolase 1 (Mus musculus, UniProt Q8BLF1)
Chain of UniProt Q00987 (whole entry, looked up): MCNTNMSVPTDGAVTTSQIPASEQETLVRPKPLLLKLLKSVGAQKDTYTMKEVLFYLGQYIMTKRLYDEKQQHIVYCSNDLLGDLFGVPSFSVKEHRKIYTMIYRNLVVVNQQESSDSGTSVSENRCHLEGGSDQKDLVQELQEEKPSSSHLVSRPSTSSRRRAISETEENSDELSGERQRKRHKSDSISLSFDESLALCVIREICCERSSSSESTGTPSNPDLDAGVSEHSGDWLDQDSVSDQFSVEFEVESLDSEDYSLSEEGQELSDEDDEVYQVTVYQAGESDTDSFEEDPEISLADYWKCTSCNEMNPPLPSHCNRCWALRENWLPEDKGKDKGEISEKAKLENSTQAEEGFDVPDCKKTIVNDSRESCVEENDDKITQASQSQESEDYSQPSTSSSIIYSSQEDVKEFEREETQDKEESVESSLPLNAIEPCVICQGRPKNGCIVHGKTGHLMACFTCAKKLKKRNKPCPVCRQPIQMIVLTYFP
Chain of UniProt A5GZW8 (whole entry, looked up): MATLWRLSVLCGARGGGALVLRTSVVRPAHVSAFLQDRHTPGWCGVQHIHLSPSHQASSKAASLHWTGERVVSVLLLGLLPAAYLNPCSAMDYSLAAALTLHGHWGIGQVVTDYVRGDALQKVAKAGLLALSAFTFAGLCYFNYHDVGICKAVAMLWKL
Chain of UniProt Q007T0 (whole entry, looked up): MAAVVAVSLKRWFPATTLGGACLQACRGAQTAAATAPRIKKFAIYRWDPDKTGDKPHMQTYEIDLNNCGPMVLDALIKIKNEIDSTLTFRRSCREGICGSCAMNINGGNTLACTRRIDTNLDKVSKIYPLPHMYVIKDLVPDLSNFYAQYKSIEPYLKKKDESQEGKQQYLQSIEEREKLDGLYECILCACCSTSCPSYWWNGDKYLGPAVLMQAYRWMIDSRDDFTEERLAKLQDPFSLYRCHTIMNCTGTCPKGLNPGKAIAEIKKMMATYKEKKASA
Chain of UniProt D0VWV4 (whole entry, looked up): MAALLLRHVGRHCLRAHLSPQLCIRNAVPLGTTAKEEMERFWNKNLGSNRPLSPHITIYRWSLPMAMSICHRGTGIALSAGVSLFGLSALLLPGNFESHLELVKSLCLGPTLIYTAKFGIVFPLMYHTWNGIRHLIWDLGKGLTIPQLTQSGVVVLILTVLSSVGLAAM
Chain of UniProt Q9UH17 (whole entry, looked up): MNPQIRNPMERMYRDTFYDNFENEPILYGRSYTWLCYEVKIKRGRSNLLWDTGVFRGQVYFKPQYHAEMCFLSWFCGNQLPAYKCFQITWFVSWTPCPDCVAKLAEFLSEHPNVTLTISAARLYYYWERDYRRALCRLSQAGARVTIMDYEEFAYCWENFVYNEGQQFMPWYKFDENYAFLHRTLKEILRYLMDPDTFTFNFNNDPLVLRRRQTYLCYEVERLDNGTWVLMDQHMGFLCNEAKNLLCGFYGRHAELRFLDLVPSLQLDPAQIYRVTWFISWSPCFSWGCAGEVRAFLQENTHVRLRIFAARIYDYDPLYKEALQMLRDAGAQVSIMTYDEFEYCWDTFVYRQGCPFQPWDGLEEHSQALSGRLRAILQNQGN
Chain of UniProt Q8BLF1 (whole entry, looked up): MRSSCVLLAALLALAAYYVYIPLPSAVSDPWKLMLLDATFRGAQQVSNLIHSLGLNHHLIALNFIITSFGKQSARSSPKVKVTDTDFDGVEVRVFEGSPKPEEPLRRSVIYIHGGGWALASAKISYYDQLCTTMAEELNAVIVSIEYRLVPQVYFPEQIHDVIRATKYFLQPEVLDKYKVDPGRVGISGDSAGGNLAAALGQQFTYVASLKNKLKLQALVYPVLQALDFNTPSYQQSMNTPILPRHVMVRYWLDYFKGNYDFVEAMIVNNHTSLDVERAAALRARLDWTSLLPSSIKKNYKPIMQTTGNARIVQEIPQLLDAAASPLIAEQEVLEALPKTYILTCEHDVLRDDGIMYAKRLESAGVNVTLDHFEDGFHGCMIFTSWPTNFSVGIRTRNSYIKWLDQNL
Chain of UniProt P41143 (whole entry, looked up): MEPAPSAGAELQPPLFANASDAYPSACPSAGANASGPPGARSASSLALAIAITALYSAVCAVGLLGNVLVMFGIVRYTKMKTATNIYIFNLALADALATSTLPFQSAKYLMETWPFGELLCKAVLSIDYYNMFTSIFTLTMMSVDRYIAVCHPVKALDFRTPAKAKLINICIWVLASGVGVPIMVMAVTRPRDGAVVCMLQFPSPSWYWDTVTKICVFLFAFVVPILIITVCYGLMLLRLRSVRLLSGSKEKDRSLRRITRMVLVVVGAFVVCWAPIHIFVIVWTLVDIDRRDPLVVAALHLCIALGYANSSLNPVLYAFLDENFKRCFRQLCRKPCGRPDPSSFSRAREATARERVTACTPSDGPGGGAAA
Chain of UniProt P21554 (whole entry, looked up): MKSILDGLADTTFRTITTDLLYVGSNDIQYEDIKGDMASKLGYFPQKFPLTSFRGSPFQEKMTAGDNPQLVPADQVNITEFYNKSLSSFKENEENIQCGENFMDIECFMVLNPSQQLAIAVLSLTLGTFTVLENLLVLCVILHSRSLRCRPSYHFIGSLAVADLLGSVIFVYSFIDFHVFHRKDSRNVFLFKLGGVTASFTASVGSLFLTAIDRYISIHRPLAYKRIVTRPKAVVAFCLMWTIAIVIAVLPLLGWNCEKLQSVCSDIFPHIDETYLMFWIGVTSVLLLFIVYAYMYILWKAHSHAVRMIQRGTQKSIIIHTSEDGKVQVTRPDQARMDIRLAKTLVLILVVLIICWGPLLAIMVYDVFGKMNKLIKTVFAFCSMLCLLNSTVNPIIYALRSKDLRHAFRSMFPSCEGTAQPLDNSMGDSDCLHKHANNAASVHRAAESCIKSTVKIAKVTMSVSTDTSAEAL
Chain of UniProt P08238 (whole entry, looked up): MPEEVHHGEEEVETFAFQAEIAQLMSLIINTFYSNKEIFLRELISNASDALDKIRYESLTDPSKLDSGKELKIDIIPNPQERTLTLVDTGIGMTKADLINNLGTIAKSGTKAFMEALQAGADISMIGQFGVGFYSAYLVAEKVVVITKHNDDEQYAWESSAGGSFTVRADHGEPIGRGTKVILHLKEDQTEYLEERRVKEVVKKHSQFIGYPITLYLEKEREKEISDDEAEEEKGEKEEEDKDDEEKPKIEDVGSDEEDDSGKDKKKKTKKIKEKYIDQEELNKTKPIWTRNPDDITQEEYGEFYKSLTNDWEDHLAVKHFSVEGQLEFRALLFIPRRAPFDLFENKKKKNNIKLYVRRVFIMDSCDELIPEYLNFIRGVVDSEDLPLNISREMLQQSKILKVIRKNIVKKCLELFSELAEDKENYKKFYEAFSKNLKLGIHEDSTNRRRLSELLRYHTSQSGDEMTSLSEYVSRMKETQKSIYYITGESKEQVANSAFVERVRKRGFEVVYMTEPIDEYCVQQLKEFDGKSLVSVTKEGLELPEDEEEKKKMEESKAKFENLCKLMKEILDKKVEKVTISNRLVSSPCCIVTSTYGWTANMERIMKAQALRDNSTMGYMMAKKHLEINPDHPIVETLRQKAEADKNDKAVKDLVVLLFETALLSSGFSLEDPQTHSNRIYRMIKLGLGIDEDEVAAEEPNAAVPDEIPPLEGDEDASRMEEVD
Chain of UniProt P07237 (whole entry, looked up): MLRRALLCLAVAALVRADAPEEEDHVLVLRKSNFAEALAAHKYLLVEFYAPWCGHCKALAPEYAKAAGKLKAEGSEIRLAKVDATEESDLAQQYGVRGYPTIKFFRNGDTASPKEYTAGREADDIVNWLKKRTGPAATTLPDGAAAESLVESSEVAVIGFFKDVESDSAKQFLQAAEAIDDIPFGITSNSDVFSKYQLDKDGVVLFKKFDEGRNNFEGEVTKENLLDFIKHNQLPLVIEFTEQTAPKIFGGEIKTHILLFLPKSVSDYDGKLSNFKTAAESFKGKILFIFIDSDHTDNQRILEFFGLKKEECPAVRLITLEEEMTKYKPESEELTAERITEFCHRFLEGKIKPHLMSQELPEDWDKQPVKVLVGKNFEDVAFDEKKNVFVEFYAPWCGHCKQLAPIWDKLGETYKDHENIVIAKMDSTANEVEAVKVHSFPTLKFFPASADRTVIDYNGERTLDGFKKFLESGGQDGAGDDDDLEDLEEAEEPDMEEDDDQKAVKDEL

Structure (SMILES) | target | test | system | conditions | scale | endpoint | result
O=C1NC(=O)c2c1c1cc(F)c[n+]3c1c1c2c2cc(O)ccc2[n]1[Ru-4]312([N]=C=S)[S+]3CC[S+]1CC[S+]2CC3 (centres unmarked) | CAMK2B (Homo sapiens, UniProt Q13554) | enzyme activity |  | 100 nM, human enzyme, together with: 10 µM ATP | baseline: untreated | remaining activity | 28%
N[C@H](C(=O)N1CCCC1)C1CCN(c2nccc3c(-c4ncc(Cl)cc4Cl)cccc23)CC1 | PADI1 (Homo sapiens, UniProt Q9ULC6) | enzyme activity |  | 3.84 µM, together with: Ca2+ 0.25 mM |  | kcat | 0.0194 s⁻¹
CC12CCC(=O)C=C1CCC1C2C=C(c2cccnc2)C2(C)C(=O)CCC12 (centres unmarked) | 7-alpha-hydroxycholest-4-en-3-one 12-alpha-hydroxylase (Homo sapiens, UniProt Q9UNU6) | inhibitor |  | 80 µM, together with: 7α-hydroxycholest-4-en-3-one 0.5 µM |  | remaining activity | 105 ± 6%
C[C@@H](O)[C@@H]1CN([C@@H](CC2CCCCC2)CN2CCC[C@H]2CN2CCNC[C@@H]2Cc2ccc3ccccc3c2)CCN1CCC12CC3CC(CC(C3)C1)C2 | Oprd1 | radioligand binding | rat brain membranes | 500 nM, pH 7.5, 25 °C, together with: 2 nM [3H]DPDPE |  | remaining binding | 90.4%
COc1ccccc1-c1n[nH]c2nc(NC3CCN(C(=O)Cc4ccc(F)cc4F)CC3)ncc12 | mitogen-activated protein kinase 9 (Leishmania donovani, UniProt A0A3Q8IB74) | affinity bead binding, bead competition pull-down | Leishmania donovani extract | 10 µM, analogue affinity beads | baseline: vehicle | relative binding | 0.45
CCCc1cc2cc(-n3c4c(c5ccccc53)C(=O)CC(C)(C)C4)cc(N3CCC(O)CC3)c2c(=O)[nH]1 | HSP90AB1 (Homo sapiens, UniProt P08238) | fluorescence polarization |  |  | baseline: apparent KD Hsp90α over apparent KD HSP90AB1 | selectivity ratio | > 17 fold
CCCC[C@H]1CNCCN1C[C@@H]1CCCN1C[C@H](CC1CCCCC1)N1CCN(CCC23CC4CC(CC(C4)C2)C3)[C@H](Cc2ccc(O)cc2)C1 | Oprd1 | radioligand binding | rat brain membranes | 500 nM, pH 7.5, 25 °C, together with: 2 nM [3H]DPDPE |  | remaining binding | 90.5%
CN1CC[C@@]23c4c5ccc(O)c4C[C@@H]2[C@H](O)C=C[C@@H]3[C@@H]1C5 | OPRD1 (Homo sapiens, UniProt P41143) | receptor activation, agonist, cell-based |  |  |  | Emax | < 10%
CC[C@@H](C)[C@@H]1CN([C@@H](CC2CCCCC2)CN2CCC[C@H]2CN2CCNC[C@@H]2Cc2ccc3ccccc3c2)CCN1CCc1ccc(Cl)c(Cl)c1 | Oprd1 | radioligand binding | rat brain membranes | 500 nM, pH 7.5, 25 °C, together with: 2 nM [3H]DPDPE |  | remaining binding | 91%
CCCCC/C=C\C/C=C\C/C=C\C/C=C\CCCC(=O)NCCc1ccc(O)c(O)c1 | Trpv1 (Mus musculus, UniProt Q704Y3, N552L) | ion current, agonist, whole-cell patch clamp |  | N552L | baseline: 3 mM 2-APB | maximal open probability | 0.88 ± 0.11
CCOC(=O)[C@@H]1Cc2c(cc([N+](=O)[O-])cc2[N+](=O)[O-])[C@H](O)[C@]12C(=O)Nc1ccc(Br)cc12 | PIM3 (Homo sapiens, UniProt Q86V86) | binding, competition with immobilised ligand |  | 0.1 µM |  | remaining binding | 46%
CCCCC[C@@H]1OC(=O)[C@@H](C)N(C)C(=O)[C@H](CCCCC)OC(=O)[C@@H](C)N(C)C(=O)[C@H](CCCCC)OC(=O)[C@@H](C)N(C)C(=O)[C@H](CCCCC)OC(=O)[C@@H](C)N(C)C1=O | ryanodine receptor 2 (Sus scrofa, UniProt A0A5G2R1W3) | single-channel gating, planar lipid bilayer |  | 3 µM, pCa 7, porcine |  | closed dwell time constant T1 | 11.1 ± 4.7 ms
C#CCCCCOc1ccc2c(c1)CCCN2C(=O)CCl | SCARB2 (Homo sapiens, UniProt Q14108) | mass spectrometry profiling | H460 cell lysate | 100 µM over 10 µM, UniProt Q14108 | baseline: high over low concentration | reactivity ratio | 1.2
C=C(c1ccccc1)[C@@H](N)P(=O)(O)O | PAL1 (Petroselinum crispum, UniProt P24481, Y110F) | binding, ITC |  |  |  | -TΔS | 1.4 kcal/mol
C=CC(=O)Nc1cc(-c2ccc(C(=O)N3CCCC(O)(CC)C3)cc2)ccc1F (centres unmarked) | DNA dC->dU-editing enzyme APOBEC-3B, C-terminal domain (Homo sapiens, UniProt Q9UH17) | covalent adduct, intact protein MS |  | 1 h, 10-fold excess, 250 µM |  | unmodified protein | 80% and 74%
CCc1nnc(-c2c(OC)cc(-c3cnc4cc(-c5cnn(C)c5)ccn34)cc2OC)o1 | ACHE (Homo sapiens, UniProt P22303) | radioligand binding |  | 10 µM, SafetyScreen44 replicate 2 | lower = stronger displacement | remaining binding | 94.2%
CN(C)[C@H]1C[C@@]23CC[C@@]4(O2)C(=CC[C@]2(C)[C@@H](c5ccc6ccncc6c5)CC[C@H]24)C=C3[C@@H](O)[C@@H]1O | ROCK1 (Homo sapiens, UniProt Q13464) | probe labelling, inhibitor, KiNativ ATP probe MS | native lysate | 1 µM |  | inhibition | 19%
COC(=O)[C@@H](NC(=O)c1nn(Cc2ccc(F)cc2)c2cc(OCCCCNC(N)=O)ccc12)C(C)(C)C | Cannabinoid receptor 1, with Gi2 (CNR1, Homo sapiens, UniProt P21554) | GTP turnover, agonist, refers to: Gi2 Gα subtype |  |  |  | maximal efficacy | 118%
CN(C)CCCSC(=S)N1CCN(C(=O)/C=C/c2coc3ccccc3c2=O)CC1 | Nucleoprotein (N, Tomato spotted wilt virus, UniProt P25999, R94A/Y184A) | binding, microscale thermophoresis |  | 15.62 µM | dose series | MST response | 0.907 a.u.
CC(C)CC(O)(CC(C)C)c1cn(C(=O)N2CCCC2)nn1 | Neutral cholesterol ester hydrolase 1 | probe labelling, inhibitor, refers to: Aadacl1 | mouse, brain | i.p., 0.8 mg/kg, 4 h, protein level | baseline: treated over vehicle mice, lower = stronger inhibition | activity ratio-of-ratios | 0.96
CS(C)(=O)=Nc1ccc(-c2ccc(-c3nc4cc(O[C@@H]5CO[C@H]6[C@@H]5OC[C@H]6O)[nH]c4cc3F)cc2)cc1 | IKBKE (Homo sapiens, UniProt Q14164) | enzyme activity, inhibitor |  | 10 µM |  | inhibition | -4%
CC#CC(=O)NC[C@H](NC(=O)[C@H](CC1CCCCC1)NC(=O)[C@H](CCC(N)=O)NC(C)=O)C(=O)N[C@@H](CC(C)C)C(=O)N[C@@H](Cc1ccccc1)C(=O)O | Beta sliding clamp (Escherichia coli, UniProt P0A988, H175G) | isothermal titration calorimetry |  | 25 °C |  | ΔG | -9.7 kcal/mol
CC(C)[C@H]1NC(=O)C[C@H]2/C=C/CCSSC[C@@H](NC1=O)C(=O)N[C@H](Cc1cccc3ccccc13)C(=O)NCC(=O)O2 | CSNK1E (Homo sapiens, UniProt P49674) | enzyme activity, inhibitor |  | 10 µM |  | inhibition | 7.1%
CN(C(=O)[C@@H]1CSCC(=O)N[C@@H](Cc2ccccc2)C(=O)N[C@@H](CO)C(=O)N[C@@H](Cc2ccccc2)C(=O)N[C@@H](Cc2ccc(O)cc2)C(=O)N[C@@H](Cc2ccc(O)cc2)C(=O)N[C@@H](Cc2c[nH]cn2)C(=O)N[C@@H](Cc2c[nH]c3ccccc23)C(=O)N1)[C@@H](Cc1ccccc1)C(N)=O | STING1 (Homo sapiens, UniProt Q86WV6, H232R) | thermal stability, DSF |  | 100 µM |  | ΔTm | 8.48 °C
CC[C@H](C)[C@@H]1NC(=O)[C@H](CC(C)C)NC(=O)CNC(=O)[C@H](CCCNC(=N)N)NC(=O)[C@H](Cc2c[nH]c3ccccc23)NC(=O)[C@H](CCSC)NC(=O)[C@H](CO)NC(=O)[C@H](CCC(=O)O)NC(=O)[C@H](Cc2ccccc2)NC(=O)[C@H](CC(=O)O)NC(=O)[C@H]([C@@H](C)O)NC(=O)CNC(=O)[C@H](CCC(=O)O)NC(=O)[C@H]([C@@H](C)O)NC(=O)CNC(=O)[C@H](CC(=O)O)NC1=O | MDM2 (Homo sapiens, UniProt Q00987) | MDM2-ligand binding, inhibitor, AlphaLISA competition |  | 0.01221 µM, together with: GST-tagged MDM2 ligand | lower = stronger inhibition | AlphaLISA signal | 11600 a.u. and 11900 a.u. and 11100 a.u.
O=C(CF)N[C@H]1[C@H]([C@H](O)[C@H](O)CNC(=O)c2ccc(Oc3ccccc3)cc2)O[C@@](OCc2cccc(Cl)c2Cl)(C(=O)O)C[C@@H]1O | CD22 (Homo sapiens, UniProt P20273) | isothermal titration calorimetry |  |  |  | ΔH | -12.8 ± 0.88 kcal/mol
CON(C(=O)c1cn(C)nc1C(F)F)C(C)Cc1c(Cl)cc(Cl)cc1Cl (centres unmarked) | SDHD/SDHC/SDHB (Sus scrofa, UniProt A5GZW8+D0VWV4+Q007T0) | enzyme activity, inhibitor, DCIP reduction | pig | 1 µM, together with: DCIP 160 µM |  | reaction velocity | 0.00835 µM/s and 0.009 µM/s
COCC1CCCCN1C(=O)n1cc(C(O)(c2ccccc2)c2ccccc2)nn1 (centres unmarked) | Neutral cholesterol ester hydrolase 1 | probe labelling, inhibitor, competitive ABPP-SILAC, refers to: Aadacl1 | mouse T cells | concentration not given, 4 h, protein level | baseline: treated over DMSO cells, lower = stronger inhibition | SILAC activity ratio | 1.22
O=C(Nc1ccc([As](O)O)cc1)c1cc(C(=O)Nc2ccc([As](O)O)cc2)cc(C(=O)Nc2ccc([As](O)O)cc2)c1 | Protein disulfide-isomerase, reduced (P4HB, Homo sapiens, UniProt P07237) | absorbance titration |  | concentration not given, 1 µM protein |  | binding stoichiometry | 0.89 ± 0.08

Excerpt of the above:
Structure (SMILES) | target | test | system | conditions | scale | endpoint | result
COCC1CCCCN1C(=O)n1cc(C(O)(c2ccccc2)c2ccccc2)nn1 (centres unmarked) | Neutral cholesterol ester hydrolase 1 | probe labelling, inhibitor, competitive ABPP-SILAC, refers to: Aadacl1 | mouse T cells | concentration not given, 4 h, protein level | baseline: treated over DMSO cells, lower = stronger inhibition | SILAC activity ratio | 1.22
O=C(Nc1ccc([As](O)O)cc1)c1cc(C(=O)Nc2ccc([As](O)O)cc2)cc(C(=O)Nc2ccc([As](O)O)cc2)c1 | Protein disulfide-isomerase, reduced (P4HB, Homo sapiens, UniProt P07237) | absorbance titration |  | concentration not given, 1 µM protein |  | binding stoichiometry | 0.89 ± 0.08
